Published values collected from several papers.
Lines come from different studies, so protocols differ. ± gives the spread as reported.

Structure (SMILES)	test	test system	conditions	scale	quantity	result
COC1C=COC2(C)Oc3c(C)c(O)c4c(c3C2=O)C2=NC3(CCN(CC(C)C)CC3)NC2=C(NC(=O)C(C)=CC=CC(C)C(O)C(C)C(O)C(C)C(OC(=O)c2cncnc2)C1C)C4=O (stereo not shown)	–	CD-1 mouse female, plasma	oral, 10 mg/kg	–	fAUC/MIC ratio	96.4
C=C[C@]1(C)C[C@@H](OC(=O)CSc2ccc(NC(=O)c3ccco3)cc2)[C@]2(C)[C@H](C)CC[C@]3(CCC(=O)[C@H]32)[C@@H](C)[C@@H]1O	–	M. gallisepticum-infected chickens, plasma	intramuscular, 80 mg/kg single dose	–	AUC(0-24 h)	18600 ng·h/mL
CC1(C)CC[C@]2(NC(=O)C(C)(F)F)CC[C@]3(C)[C@H](C(=O)C=C4[C@@]5(C)C=C(C#N)C(=O)C(C)(C)[C@@H]5CC[C@]43C)[C@@H]2C1	geometric least squares mean	human, plasma	oral, dose not given, together with: itraconazole	–	AUC(0-inf)	7130 ng·h/mL
C=CC(=O)Nc1cc(Nc2nccc(-c3cn(C)c4ccccc34)n2)c(OC)cc1N(C)CCNC	storage stability	human plasma	30 d, -80 °C, MQC level	–	recovery	99.5%
CN1CCC[C@]1(C)/C=C/S(=O)(=O)NC(=O)Nc1c2c(cc3c1CCC3)CCC2	measured: blood triglycerides increased, not related	human	oral, 50 mg twice daily, 14 days, multiple ascending dose	–	subjects with adverse event	0%
F[C@@H]1[C@H](c2ccc(-c3cnc(N4CCOCC4)nc3)cc2)[C@H](F)[C@H](F)C[C@@H]1F	liver microsome stability	cynomolgus liver microsomes	1 µM	–	hepatic clearance	27 mL/min/kg
COc1cccc(OC)c1-c1cc(C(=O)NC2(C(=O)O)C3CC4CC(C3)CC2C4)nn1-c1ccc(C(=O)N(C)CCOCCOCCN(C)C(=O)[C@H](CCCCNC(=O)[C@H](CC(C)C)NC(=O)C2OC2C(=O)O)NC(=O)CN2CCN(CC(=O)[O-])CCN(CC(=O)[O-])CCN(CC(=O)[O-])CC2)cc1C(C)C.[177Lu+3] (mixture of isomers)	–	mouse, HT-29 xenograft	4 h post injection, biodistribution	relative to: tumour over blood uptake	tumour-to-blood ratio	1.4
Cc1noc(C)c1Cn1cc(N2C(=O)CN(Cc3cccc(O[C@@H]4O[C@H](C(=O)O)[C@@H](O)[C@H](O)[C@H]4O)c3)C2=O)cn1	–	Sprague-Dawley rat, male	oral, 100 mg/kg of parent drug, 4 h	–	plasma concentration	6030 ng/mL
[2H]C([2H])([2H])Oc1cc2c(cc1OC([2H])([2H])[2H])[C@H]1C[C@H](O)[C@H](CC(C)C)CN1CC2 (relative stereo)	measured: deuterated analyte	healthy human male, plasma	oral, 25 mg, median, [14C]-deutetrabenazine dosed	–	Tlag	0.33 h
O=C(CN1CN(c2ccccc2)C2(CCN(C(=O)c3ccc4[nH]ncc4c3)CC2)C1=O)N(CCO)CC(F)(F)F	–	human liver microsomes	–	–	CLint	54 µL/min/mg protein
CC(C)(O)Cn1nc(-c2ccccc2)c2c(Cl)c(-c3ccccc3)nnc21	–	mouse juvenile P20, plasma	intraperitoneal, 30 mg/kg	–	AUC	5.94 µM·h
CCN(CC)c1ccc2c(c1)O[B-]1(c3ccc(C)cc3)OC(=O)C(c3ccccc3)=N[N+]1=C2 (stereo not shown)	–	toluene	–	–	fluorescence emission maximum	508 nm
O=C(NC1CCOCC1)c1ccc(C2CCCCC2)cc1	hepatocyte stability	cryopreserved mouse hepatocytes	1 µM	–	hepatic clearance	69 mL/min/kg
[123I]c1ccc2nc(-c3ccc(-n4ccnn4)nc3)cn2c1	–	male Wistar rat, large intestine	intravenous, 4 MBq, 24 h	–	tissue uptake	0.122 ± 0.026 %ID/g
COc1cccc(OC)c1-c1cc(C(=O)NC2(C(=O)O)C3CC4CC(C3)CC2C4)nn1-c1ccc(C(=O)N(C)CCOCCN(C)C(=O)[C@H](CCCCNC(=O)[C@H](CC(C)C)NC(=O)C2OC2C(=O)O)NC(=O)CN2CCN(CC(=O)[O-])CCN(CC(=O)[O-])CCN(CC(=O)[O-])CC2)cc1C(C)C.[177Lu+3] (mixture of isomers)	–	mouse, HT-29 xenograft	4 h post injection, biodistribution	relative to: tumour over blood uptake	tumour-to-blood ratio	2.6
C=C(NC(=O)c1csc(-c2nc3c(cc2O)-c2nc(cs2)C(=O)NC(C(C)O)C(=O)NC(=C(C)OC)c2nc(cs2)C(=O)NC2c4nc(cs4)C(=O)NC(COC(=O)c4c5c6c(cccc6n4O)COC(=O)C(OC4CC(C)(O)C(N(C)C)C(C)O4)C2OC5)c2nc-3cs2)n1)C(N)=O (stereo not shown)	–	ICR mice, Streptococcus pneumoniae ATCC 49169 infected, immunocompromised, blood	intravenous, 4 mg/kg/day once daily	–	AUC(0-inf)	342 ng·h/mL
CC[C@H](C)[C@H](NC(=O)[C@@H](NC(=O)[C@H](CCCCN)NC(=O)[C@@H](NC(=O)[C@@H]1CCCN1[C@@H]1CN(C(=O)[C@@H](NC(=O)[C@@H](NC(=O)[C@@H](NC(=O)[C@@H](NC(=O)[C@@H](NC(=O)[C@@H](N)CCCCN)C(C)C)C(C)C)C(C)C)[C@@H](C)CC)[C@@H](C)O)CC[C@H]1NS(=O)(=O)c1ccc(C)cc1)[C@@H](C)O)C(C)C)C(=O)N[C@@H](CC(C)C)C(=O)N[C@@H](Cc1c[nH]cn1)C(N)=O	CD spectroscopy	20 mM phosphate buffer	125 µM, 37 °C	–	helix content	11.7%
Cc1cc(-c2ccc(C(=O)[C@@H]3CCCC[C@H]3C(=O)Nc3cnn4c3C(=O)NCC4)cc2)[nH]n1	–	human, urine	oral, 200 mg, mean of six subjects	relative to: dose	recovery of radioactivity	5.9%
O=C(Nc1ccc(C2CCCCC2)cc1)C1CC1	liver microsome stability	mouse liver microsomes	1 µM	–	hepatic clearance	79 mL/min/kg
O=C(O)CCCOc1ccc([18F])cc1-c1cc(-c2ccccc2C(F)(F)F)n(-c2ccccc2)n1	–	mouse, bone	intravenous, dose not given, 180 min	–	tissue uptake	1.74 ± 0.42 %ID/g
C=CC(=O)Nc1cc(Nc2nccc(-c3c[nH]c4ccccc34)n2)c(OC)cc1N(C)CCN(C)C	storage stability	human plasma samples	30 d, -80 °C, MQC level	relative to: nominal concentration	percentage recovery	19.9%
CN(C(=O)C(C)(C)c1cc(C(F)(F)F)cc(C(F)(F)F)c1)c1cnc(N2C[C@H]3COC(O)CN3C[C@H]2CO)cc1-c1ccc(F)cc1CO (stereo partly shown)	–	pooled human liver microsomes	pH 7.4, substrate depletion	–	pathway contribution to clearance	100%
COc1cccc(OC)c1-c1cc(C(=O)NC2(C(=O)O)C3CC4CC(C3)CC2C4)nn1-c1ccc(C(=O)N(C)CCCN(C)C(=O)[C@H](CCCCNC(=O)[C@H](CC(C)C)NC(=O)C2OC2C(=O)O)NC(=O)CN2CCN(CC(=O)[O-])CCN(CC(=O)[O-])CCN(CC(=O)[O-])CC2)cc1C(C)C.[177Lu+3] (mixture of isomers)	–	mouse, HT-29 xenograft	24 h post injection, biodistribution	relative to: tumour over bone uptake	tumour-to-bone ratio	28.1
O=C(Nc1cnccc1-c1ccc([18F])nc1)c1ccnc(NC(=O)C2CC2)c1	–	mice, transgenic, GSK-3β, early-stage, pancreas	intravenous, dose not given, 120 min	–	SUV	0.215
OC1(C(F)(F)F)CCN(c2nc(Nc3ccnc(C(F)(F)F)c3)nc(-c3cccc(C(F)(F)F)n3)n2)C1 (stereo not shown)	–	Sprague-Dawley rat, plasma	oral, 20 mg/kg	–	MRT(0-inf)	24.2 h

Structure (SMILES)	test	test system	conditions	scale	quantity	result
Fc1ccc(OCC2CN(Cc3ncn4ccccc34)CCC2(F)F)cc1 (stereo not shown)	equilibrium dialysis	mouse plasma	–	–	fu	0.046
CN(C)C(=O)CNC(=O)c1ccc(C2CCCCC2)cc1	liver microsome stability	cynomolgus liver microsomes	1 µM	–	hepatic clearance	36 mL/min/kg
O=C(NS(=O)(=O)c1cccs1)c1cc2ccccc2n1Cc1ccc(Br)c2ccccc12	–	Sprague-Dawley rat, male	oral, dose not given, 8 h	–	plasma concentration	119 ng/mL
CC(C)C[C@H](NC(=O)[C@H](CO)NC(=O)[C@H](CCC(=O)O)NC(=O)CNC(=O)[C@H](C)NC(=O)OCc1ccccc1)C(=O)N[C@@H](Cc1ccc(O)cc1)C(=O)N[C@@H](CCC(=O)O)C(N)=O	metabolic stability	human, plasma	30 min	–	compound remaining	85.3%
CCCCCCCOc1ccc(CC[C@](N)(CO)COP(=O)(O)O)cc1C(F)(F)F	–	healthy men, plasma	oral, 0.125 mg once daily, day 1, fed state	–	AUCτ	4.52 ng·h/mL
c1cc(C2CCCCC2)ccc1-c1ccc(N2CCCC2)nc1	liver microsome stability	dog liver microsomes	1 µM	–	hepatic clearance	23 mL/min/kg
C=C1C[C@]2(C(=O)OC)C=C(C(=O)Nc3cccc(C(=O)Nc4ccc(Nc5nccc(-c6cccnc6)n5)c(C)c4)c3)C(=O)[C@H]1C2	–	Wistar rat, male, plasma	10 µM, 30 min	–	compound remaining	0.89%
COc1ccc2c(c1)CN(C(=O)CCN1CCC(Cc3ccccc3)CC1)CCS2	–	paroxysmal atrial fibrillation patients, plasma	oral, 540 mg, 120 min	–	unbound plasma concentration	14 ± 4 nM
Cc1cc(/C=C/C#N)cc(C)c1Oc1nc(NC2CCN(Cc3ccc(S(C)(=O)=O)cc3)CC2)nc2ncccc12	–	Sprague-Dawley rat, plasma	intravenous, 2 mg/kg	–	MRT(0-inf)	1.25 h
O=C(Nc1cnccc1-c1ccc([18F])cc1)c1ccnc(NC(=O)C2CC2)c1	–	FVB/NJ mouse, both sexes, brain	intravenous, 5 min	–	SUV	0.92
CCCC[C@H](NC(=O)CNC(=O)CNC(=O)[C@H](CCCCNC(=O)[C@H](CCN)NC(=O)C(C)c1ccc(CC(C)C)cc1)NC(=O)CN1CCN(CC(=O)O)CCN(CC(=O)O)CCN(CC(=O)O)CC1)C(=O)N[C@H]1CC(=O)NCCCC[C@@H](C(N)=O)NC(=O)[C@H](Cc2c[nH]c3ccccc23)NC(=O)[C@H](CCCNC(=N)N)NC(=O)[C@@H](Cc2ccccc2)NC(=O)[C@H](Cc2c[nH]cn2)NC1=O (stereo partly shown) [lutetium-177 labelled]	–	C57 mouse, urine	2 h	–	urinary excretion	41 ± 5.38%
Cc1cc2c(cc1O)C=C1C=CC(=O)C(C)(C)[C@H]1CC2	–	male Sprague-Dawley rat, plasma	intravenous, 2 mg/kg	–	MRT(0-t)	0.57 h
COc1cccc(OC)c1-c1cc(C(=O)NC2(C(=O)O)C3CC4CC(C3)CC2C4)nn1-c1ccc(C(=O)NCCNC(=O)[C@H](CCCCNC(=O)[C@H](CC(C)C)NC(=O)C2OC2C(=O)O)NC(=O)CN2CCN(CC(=O)[O-])CCN(CC(=O)[O-])CCN(CC(=O)[O-])CC2)cc1C(C)C.[177Lu+3] (mixture of isomers)	–	mouse, HT-29 xenograft	72 h post injection, biodistribution	relative to: tumour over bone uptake	tumour-to-bone ratio	76.8
O=C(N1CCCCC1)C12CC(c3ccccc3)(C1)C2(Cl)Cl	metabolic stability	human, liver microsomes	2 µM, 40 min, pH 7.4	–	compound remaining	35%
F[C@@H]1[C@H](c2ccc(-c3cncnc3)cc2)[C@H](F)[C@H](F)C[C@@H]1F	hepatocyte stability	cryopreserved human hepatocytes	1 µM	–	hepatic clearance	6.2 mL/min/kg
CCN(CC)c1ccc2c(c1)O[B-]1(c3ccccc3C#N)OC(=O)C(c3ccccc3)=N[N+]1=C2 (stereo not shown)	–	toluene	–	–	fluorescence lifetime	2.66 ns
O=C(CN1CCCCC1)Nc1ccc([C@H]2[C@@H](F)[C@@H](F)C[C@@H](F)[C@H]2F)cc1	–	human liver microsomes	1 µM, without NADPH	–	hepatic clearance	3.9 mL/min/kg
COC(=O)[C@@]1(C)C=C(C(=O)Nc2cccc(C(=O)Nc3ccc(Nc4nccc(-c5cccnc5)n4)c(C)c3)c2)C(=O)CC1	–	Wistar rat, male, plasma	1 µM, 10 min	–	compound remaining	55.9%
CC[C@H](C)[C@@H]1NC(=O)[C@H](Cc2ccc(O)cc2)NC(=O)CCCSC[C@@H](C(=O)N(CC(=O)N[C@@H](CC(C)C)C(=O)NCC(N)=O)Cc2ccc(F)cc2)NC(=O)[C@H](CC(N)=O)NC(=O)[C@H](CCC(N)=O)NC1=O	–	human	intranasal, 300 µg single dose	–	AE leading to discontinuation	0%
O=C(CN1CCOCC1)Nc1ccc([C@H]2[C@@H](F)[C@@H](F)C[C@@H](F)[C@H]2F)cc1	liver microsome stability	rat liver microsomes	1 µM	–	hepatic clearance	13 mL/min/kg
O=C([O-])CN1CCN(CC(=O)[O-])CCN(C(CO)C(O)CO)CCN(CC(=O)[O-])CC1.[Dy+3] (stereo not shown)	ICP-MS	cynomolgus monkey	dose not given, 3 d, mass balance group	relative to: dose	cumulative urinary excretion	98.5%
COc1cnc2cccc(N3CCc4c(cc(Cn5ccnc5)cc4-c4cn(C)nc4C(F)(F)F)C3=O)c2c1	–	CD-1 mouse, male, plasma	intraperitoneal, 10 mg/kg	–	AUC extrapolated fraction	0%
Cc1nc(N)nc2c1C(=O)N[C@@H](c1ccc(F)cc1-c1cccc(O[11CH3])n1)C2	ex vivo biodistribution	mice, MDA-MB-231 subcutaneous xenograft, liver	60 min post-injection, baseline, vehicle pre-treatment	–	SUV	2.5 ± 0.2
C/C(N)=N/C(=N\S(=O)(=O)c1ccc(C(F)(F)F)cc1)N1C[C@H](c2ccccc2)C(c2ccc(Cl)cc2)=N1	–	male C57BL/6 mouse, brain	intravenous, 10 mg/kg	–	half-life	7.5 h

Excerpt of the above:
Structure (SMILES)	test	test system	conditions	scale	quantity	result
CC(C)(O)Cn1nc(-c2ccccc2)c2c(Cl)c(-c3ccccc3)nnc21	–	mouse juvenile P20, plasma	intraperitoneal, 30 mg/kg	–	AUC	5.94 µM·h
CC[C@H](C)[C@@H]1NC(=O)[C@H](Cc2ccc(O)cc2)NC(=O)CCCSC[C@@H](C(=O)N(CC(=O)N[C@@H](CC(C)C)C(=O)NCC(N)=O)Cc2ccc(F)cc2)NC(=O)[C@H](CC(N)=O)NC(=O)[C@H](CCC(N)=O)NC1=O	–	human	intranasal, 300 µg single dose	–	AE leading to discontinuation	0%
COC1C=COC2(C)Oc3c(C)c(O)c4c(c3C2=O)C2=NC3(CCN(CC(C)C)CC3)NC2=C(NC(=O)C(C)=CC=CC(C)C(O)C(C)C(O)C(C)C(OC(=O)c2cncnc2)C1C)C4=O (stereo not shown)	–	CD-1 mouse female, plasma	oral, 10 mg/kg	–	fAUC/MIC ratio	96.4
CN1CCC[C@]1(C)/C=C/S(=O)(=O)NC(=O)Nc1c2c(cc3c1CCC3)CCC2	measured: blood triglycerides increased, not related	human	oral, 50 mg twice daily, 14 days, multiple ascending dose	–	subjects with adverse event	0%
C=CC(=O)Nc1cc(Nc2nccc(-c3cn(C)c4ccccc34)n2)c(OC)cc1N(C)CCNC	storage stability	human plasma	30 d, -80 °C, MQC level	–	recovery	99.5%
CC1(C)CC[C@]2(NC(=O)C(C)(F)F)CC[C@]3(C)[C@H](C(=O)C=C4[C@@]5(C)C=C(C#N)C(=O)C(C)(C)[C@@H]5CC[C@]43C)[C@@H]2C1	geometric least squares mean	human, plasma	oral, dose not given, together with: itraconazole	–	AUC(0-inf)	7130 ng·h/mL
